Results pooled from the literature.
Each numbered part is a random draw from the data of one study; scales do not carry over between parts. Changes are numbered by the printed parent chain.

Series 1 — method: protein-binding microarray; form: double-stranded DNA, one strand shown; matrix: in vitro; concentration: 940 nM top; notes: 60-bp whole probe; together with: salmon DNA 0.4 mg/ml; reference: random background probes; reading: higher = stronger binding; all sequences stand within: GCCTAGCAC … GTCTTGATTCGCTTGACGCTGCTG
Target: Interferon regulatory factor 5, full length, phosphomimetic (IRF5, Homo sapiens, UniProt Q13568-2, residues 1-514, S451D/S453D/S456D/S462D)
Sequence	fitted relative affinity
TTAGGACTGAGGACTGGGTTAGTGCTA	-0.582 z-score
GAGCCTCTGTTTTGAGCACAGTGCTAG	-0.195 z-score
TTAGGTATCGGGTTTGGGTTAGTGCTA	6.29 z-score
AACGGTATCCTACTGCTGACGTGCTAG	-0.0349 z-score
TTAGGACTGGGACTAGGTTAGTGCTAG	-0.388 z-score
TTAGGTTTCGACTTGCGGTTAGTGCTA	8.92 z-score
TTAGGACTGCTTTTCCTTTTGTGCTAG	-0.24 z-score
GACAGTCTCCTTTTCCTGACGTGCTAG	1.67 z-score
TTAGGACAGGGGTTTCGGTTAGTGCTA	5.67 z-score
GACCATCTCAGTTTCGAGACGTGCTAG	4.13 z-score
TTAGATATCGGGTTTCGATTGGTGCTA	5.45 z-score
TTAGGTATCGGGACTGGGATAGTGCTA	3.78 z-score
TGCTCTTTCTACATAGATGTGTGCTAG	1.02 z-score
CTAATTTTCAATTCCTGAAAGTGCTAG	0.656 z-score
GACGGTCTCGGTCTCGGGAGGTGCTAG	3.99 z-score
TCAATTTTGTTCATCATACTGTGCTAG	0.238 z-score
GACGGTCACGGTTTCGGGACGTGCTAG	2.65 z-score
GAGGATTTCGGGTATCGAGACGTGCTA	1.1 z-score

Series 2 — method: RNA Bind-n-Seq; form: RNA; matrix: in vitro; concentration: 100 nM; reference: input RNA pool; reading: higher = stronger binding
Target: RING finger protein unkempt homolog, zinc fingers 1-6, SBP tag (UNK, Homo sapiens, UniProt Q9C0B0, residues 30-357)
UniProt Q9C0B0, sequence (30-357, looked up): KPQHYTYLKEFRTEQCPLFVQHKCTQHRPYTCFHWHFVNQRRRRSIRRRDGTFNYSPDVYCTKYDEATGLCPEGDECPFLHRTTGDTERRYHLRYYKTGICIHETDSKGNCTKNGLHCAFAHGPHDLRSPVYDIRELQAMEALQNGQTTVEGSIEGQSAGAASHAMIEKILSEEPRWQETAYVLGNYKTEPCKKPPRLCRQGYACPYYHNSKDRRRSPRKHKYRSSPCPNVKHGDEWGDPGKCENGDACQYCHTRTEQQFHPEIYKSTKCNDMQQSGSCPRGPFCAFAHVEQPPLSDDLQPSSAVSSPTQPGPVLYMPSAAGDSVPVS
Notes: RNA with constant flanks, vertebrate orthologous sites, ends assumed
Sequence	bound/input enrichment
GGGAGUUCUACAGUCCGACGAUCCAUAGAAUAUUGGAUGCAGCAUAUAAAUUAUCCAAGGCAGUGACUUCAGCUCUAUAGAGAUUGUUAGUUUUAAAGGCACCUACUUUUAUUUAAACUUCUAGAUUGGAUUGUUUGCUAUUGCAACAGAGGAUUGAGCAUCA	1.14 ratio
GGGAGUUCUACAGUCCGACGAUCUUAUGUUUUUGUGGGGGAUGGAGGAUGGGGAGUGGGGGAUGGGAGGCUGGCGUCAGCAUUAUGAAAUAUUCCAAAGCUUUUCUUUUUUGUGCUUUGUUUUCCCUUUUAAUUGGAUGCACUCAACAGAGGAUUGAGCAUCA	1.09 ratio
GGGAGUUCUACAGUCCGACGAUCAGGAAAUGUUGGCUGCAAACCCUCAGGAUCGUCCAGAUGCAUUCGAGCUAGAACUUAGAUUAGUCCAAAUUGCUUUUAAAGAUAGUGGCUGGGACACGUGACACAUGGAUUGCUGGGAAACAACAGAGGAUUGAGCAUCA	1.61 ratio
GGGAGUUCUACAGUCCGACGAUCGUGUUUUGGUACCACUCAAUGUACCAAUACUCAUCCUUUUUUCAUUAUACCAACUAUCGCUAGAAGUAGGAGUUUAAUAUUUUUAAAAAUUUUACAUUGCUGUAUAUUCAAAAUUUUAAACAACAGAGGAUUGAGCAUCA	0.581 ratio
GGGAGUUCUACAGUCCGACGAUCUUGGGCUGUACCCGUGGGCGCCGCUGCCCAUGCAGCGUUGCUUGGUCUGGGACCUUGACGUAAUAGAUAGGCUUGUGGUUUUUUAAUUUAAAGAUAUUAAGACUUAAUUCACUAAACUUUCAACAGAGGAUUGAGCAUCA	0.372 ratio
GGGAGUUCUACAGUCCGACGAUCCUACUAUAAACAACUCAGGGCAGUAUUCUCGAUAUCCUUACAGUAACCUAAAUCAGGGAUUAGUUAACAAUACAGGGAUAAAUCAGAAUUUAGGCCUUACAAAUAACACUCCAAUGAAUCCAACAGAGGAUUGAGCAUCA	1.18 ratio
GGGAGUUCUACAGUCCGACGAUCAGGAAAUGCUGGCUGCCAACCCUCAGGAUCGUCCAGAUGCUUUUGAACUAGAACUCAGAUUAGUACAAAUUGCAUUUAAAGAUAGCAGCUGGGAAACGUGACACAUAUUAUUUGCAAAUACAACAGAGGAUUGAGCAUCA	0.988 ratio
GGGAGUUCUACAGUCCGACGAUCAAGAUGUGUUUAGUGAGUUGUAUUUAAUGAUCUCAUUCCUGAGUUCCUUUUUCAUUAAAGUAGCUUUAAUUUCUCUUAUUACAGUUAUGAAGAAAUAAAAGGGUUGUGCCUGUAGACACUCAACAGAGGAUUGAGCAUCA	0.247 ratio
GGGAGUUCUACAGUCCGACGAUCCUAUAUGGCCCUCGCAGAGUUGAGAUCAUGGAAGAGGAAAGUGAAUAGUAAUGUUCAUUUUAGUAUUUAUGUUUAGGUGUGAAAUAAAUGUUAUUUGUUGAUCUUUUCUAUAAUCUAGGGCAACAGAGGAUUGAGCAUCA	0.746 ratio
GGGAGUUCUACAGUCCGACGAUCUGCCUACAAUAAUGAAAAACCUAAAGGAAUUUUUUAUUUUUAAUUUUCCCCUUAGGCAUAUUUAGACAUCUUUUUUCCAGGCAGAUCAUUCAGAGUGUGCGAGUGUGUGUGCACAUGUUACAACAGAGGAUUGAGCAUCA	0.485 ratio
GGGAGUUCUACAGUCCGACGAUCAGGAAAUGCUAGCUGCAAACCCUCAGGAUCGUCCAGAUGCUUUUGAACUAGAACUCCGAUUAGUGCAAAUUGCAUUUAAAGAUAACAGCUGGGAAACGUGACACAUACAUUAUUUGCAAACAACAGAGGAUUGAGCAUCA	0.994 ratio

Series 3 — method: RNA Bind-n-Seq; form: RNA; matrix: in vitro; concentration: 365 nM; reference: no-protein control; reading: higher = stronger binding
Target: RNA binding protein fox-1 homolog 2, RRM domain, GST-SBP tag (RBFOX2, Homo sapiens, UniProt O43251-10, residues 100-194)
Notes: natural RNA segment, single round, ends assumed
Construct (chain): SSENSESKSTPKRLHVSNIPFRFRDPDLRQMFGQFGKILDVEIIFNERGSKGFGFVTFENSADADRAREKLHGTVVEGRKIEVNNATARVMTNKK
Sequence	RBNS enrichment (R)
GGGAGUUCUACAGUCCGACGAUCUUUAAGAUUUGUGGAUUUUAUUUUUAUUAAGAACAUAGAUAUAUAAAGUACUGUAGUUUACAGGUAGGCCUUGAAAUAUCUUUUUUAGGAUCUGUUAGGAAUAAGAUUGAUGGAAUUCUCGGGUGCCAA	0.434
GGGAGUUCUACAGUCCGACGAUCGAAUAAAUAGAUGAAGUGAGAUACAAAGCUGGGUUUGAUUCAAAGCCCUUACUUUCCUAAUUAAACUAUGAUGCGUAUUUAUUUUUCUGCACCUUCCUUUCUUCCACAAAUGGAAUUCUCGGGUGCCAA	0.989
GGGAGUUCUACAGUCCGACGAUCGCUGGGCUCAUUUCGGUCCCUUUCUCCUUGGUCCCAGACCUUGGGGGAAAGGAAGGAAGUGCAUGUUUGGGAACUGGCAUUACUGGAACUAAUGGUUUUAACCUCCUUAAUGGAAUUCUCGGGUGCCAA	4.15
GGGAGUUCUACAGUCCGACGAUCUUUCAUUUUGUGCUGAGCCCUCAAAAUUAUGUCUGUUUCGUGGUGGGAAAUAUCCUAUGUUUUCUUGCUCAAACACCUUUCUCUCUGAAAGCAGAAAAAGGCACUGAUAUUGGAAUUCUCGGGUGCCAA	0.492
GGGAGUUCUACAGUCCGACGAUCUAUUACCCUUUCACUCUUCUCACAGGACAUGUACCCAAAUAUGGUACUUAUUUAUGUAGUCACUGUGUUUCUGGAAUUUUAUGUUAAUAAAAUUUUAAUUUAAAAAGGCUUGGAAUUCUCGGGUGCCAA	0.962
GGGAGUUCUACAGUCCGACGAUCAGCCUCACCACCAUGCUAACACUGAGCAUGGUGAGGAGGAGGAAGCUUUGGCUAGCUAAACAUGUUUAAUAAGGCCAUAAAAACUGAGAAAGAAAAACAUUCAACUUUAGUGGAAUUCUCGGGUGCCAA	0.337
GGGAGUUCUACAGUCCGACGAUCUGAAAAAAUGGAGAGCAGUGUAAUAGACACACACUACAUCGGAAGAACUGACUUCUGAAACGAAGAGAAAAGCACCUAUGGAUCCCACUCCUUCCCAUCGCUUACCUGUUUGGAAUUCUCGGGUGCCAA	0.606
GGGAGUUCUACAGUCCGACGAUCCCUGUAUUCACACGGGUCACUCUGACUCAGACAGGUACUAUUCGUAGGCAGUGUAGACAGCAGGAGGAGCACCGGGCUUGGGCUUCCUCUGAGCCGUGAUGCCAAAGGUUUGGAAUUCUCGGGUGCCAA	0.483
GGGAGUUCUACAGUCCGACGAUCUUAACAUUAAUAGAACAAUCCAAAUGUUGAGCAUAUUUUGAUAUUAAACUAAAGAUCACGUCUCUGUUUUUAAAUUAUGCUAACACCACCACAGAUUAUGUUGACGUAUUUGGAAUUCUCGGGUGCCAA	0.374

Series 4 — target: CCND2, cyclin fold, Cln2 fusion (human); method: yeast growth competition, sequencing; matrix: yeast; notes: weak parent motif; reference: not given; reading: higher = stronger binding
Parent: E2F1 docking peptide (human); PPVKRRLDLETDH
Substitution	normalised enrichment score
P1T	0.378
H13Y	0.42
T11C	0.155
L7C	0.201
P1C	0.0887
T11S	0.282
V3K	0.438
L7I	0.424
R6M	0.198
D12I	-0.376
P1V	0.194
K4I	0.223
L7G	0.032
D8G	0.642
P2E	0.261
P2G	0.283
L7V	-0.055
K4V	0.331
R5D	0.485
P2H	0.404
E10Q	0.341

Some of these lines once more (series 3):
Sequence	RBNS enrichment (R)
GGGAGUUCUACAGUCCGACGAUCGAAUAAAUAGAUGAAGUGAGAUACAAAGCUGGGUUUGAUUCAAAGCCCUUACUUUCCUAAUUAAACUAUGAUGCGUAUUUAUUUUUCUGCACCUUCCUUUCUUCCACAAAUGGAAUUCUCGGGUGCCAA	0.989
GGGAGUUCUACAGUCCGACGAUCUAUUACCCUUUCACUCUUCUCACAGGACAUGUACCCAAAUAUGGUACUUAUUUAUGUAGUCACUGUGUUUCUGGAAUUUUAUGUUAAUAAAAUUUUAAUUUAAAAAGGCUUGGAAUUCUCGGGUGCCAA	0.962
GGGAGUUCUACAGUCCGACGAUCUUUCAUUUUGUGCUGAGCCCUCAAAAUUAUGUCUGUUUCGUGGUGGGAAAUAUCCUAUGUUUUCUUGCUCAAACACCUUUCUCUCUGAAAGCAGAAAAAGGCACUGAUAUUGGAAUUCUCGGGUGCCAA	0.492
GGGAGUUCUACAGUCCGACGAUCAGCCUCACCACCAUGCUAACACUGAGCAUGGUGAGGAGGAGGAAGCUUUGGCUAGCUAAACAUGUUUAAUAAGGCCAUAAAAACUGAGAAAGAAAAACAUUCAACUUUAGUGGAAUUCUCGGGUGCCAA	0.337
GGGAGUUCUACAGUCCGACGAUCUUAACAUUAAUAGAACAAUCCAAAUGUUGAGCAUAUUUUGAUAUUAAACUAAAGAUCACGUCUCUGUUUUUAAAUUAUGCUAACACCACCACAGAUUAUGUUGACGUAUUUGGAAUUCUCGGGUGCCAA	0.374
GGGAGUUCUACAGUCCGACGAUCUGAAAAAAUGGAGAGCAGUGUAAUAGACACACACUACAUCGGAAGAACUGACUUCUGAAACGAAGAGAAAAGCACCUAUGGAUCCCACUCCUUCCCAUCGCUUACCUGUUUGGAAUUCUCGGGUGCCAA	0.606
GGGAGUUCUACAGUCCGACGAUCUUUAAGAUUUGUGGAUUUUAUUUUUAUUAAGAACAUAGAUAUAUAAAGUACUGUAGUUUACAGGUAGGCCUUGAAAUAUCUUUUUUAGGAUCUGUUAGGAAUAAGAUUGAUGGAAUUCUCGGGUGCCAA	0.434
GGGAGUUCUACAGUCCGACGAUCGCUGGGCUCAUUUCGGUCCCUUUCUCCUUGGUCCCAGACCUUGGGGGAAAGGAAGGAAGUGCAUGUUUGGGAACUGGCAUUACUGGAACUAAUGGUUUUAACCUCCUUAAUGGAAUUCUCGGGUGCCAA	4.15
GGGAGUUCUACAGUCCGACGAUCCCUGUAUUCACACGGGUCACUCUGACUCAGACAGGUACUAUUCGUAGGCAGUGUAGACAGCAGGAGGAGCACCGGGCUUGGGCUUCCUCUGAGCCGUGAUGCCAAAGGUUUGGAAUUCUCGGGUGCCAA	0.483
